Assay results from different studies.
Protocols differ between the studies behind these lines. ± marks the error that the study gave.

Structure (SMILES)	test	test system	setting	scale	measurement	value
COc1ccc2ccc3c(c2c1)C=[N+]1C2CCCCC2[N+]2=Cc4cccc(OC)c4[O][Au-]21[O]3.F[P-](F)(F)(F)(F)F (centres unmarked)	ICP-MS, refers to: gold	mouse	intraperitoneal, 5 mg/kg, 24 h		blood concentration	> 1000 ng/mL
C=CCc1ccc(O)c(-c2cc(CC=C)ccc2OCCCCCCCCCC[P+](c2ccccc2)(c2ccccc2)c2ccccc2)c1		C57BL/6 mouse, non-tumour-bearing	dose not given, day 31		blood urea nitrogen	24.5 ± 3.9 mg/dL
O=C(CCCCC[N+]#[C][99Tc-5]([C]#[N+]CCCCCC(=O)N[C@H]1C(O)O[C@H](CO)[C@@H](O)[C@@H]1O)([C]#[N+]CCCCCC(=O)N[C@H]1C(O)O[C@H](CO)[C@@H](O)[C@@H]1O)([C]#[N+]CCCCCC(=O)N[C@H]1C(O)O[C@H](CO)[C@@H](O)[C@@H]1O)([C]#[N+]CCCCCC(=O)N[C@H]1C(O)O[C@H](CO)[C@@H](O)[C@@H]1O)[C]#[N+]CCCCCC(=O)N[C@H]1C(O)O[C@H](CO)[C@@H](O)[C@@H]1O)N[C@H]1C(O)O[C@H](CO)[C@@H](O)[C@@H]1O (some centres unmarked)		healthy CD-1 mouse, blood	60 min		blood uptake	0.33 ± 0.06 %ID/g
CC(=O)N[C@H]1CCCN(O)C(=O)/C=C(/C)CCOC(=O)[C@@H](NC(C)=O)CCCN(O)C(=O)/C=C(/C)CCOC(=O)[C@@H](NC(C)=O)CCCN(O)C(=O)/C=C(/C)CCOC1=O [gallium-68 labelled]		BALB/c mouse, blood	IV, dose not given, 30 min		blood level	1.6 ± 0.37 %ID/g
N[C@H]1CC[C@H](CNc2ncc(Cl)c(Nc3cc(C4CC4)[nH]n3)n2)CC1		wild-type mouse	dose not given	reference: without ABT over with ABT	blood clearance change	-20.5%
CN(C)c1ccc(-c2nc3ccc(OCCCCCN4CCN5CCN(CC4)CC(=O)[O][Al]([18F])[O]C(=O)C5)cc3s2)cc1		ICR mouse, blood	intravenous	reference: 2 min over 60 min	blood clearance ratio	25.2
N#Cc1cc(C(=O)OCC[18F])c(C(F)(F)F)nc1N1CCN(C(=O)Cc2ccccc2)CC1		mouse, whole blood	intravenous, 11.1 MBq		blood half-life	30.6 min
Cc1ccc(C(C)C)cc1.O=C(N=P(c1ccccc1)(c1ccccc1)c1ccccc1)c1ccccn1.[Cl-].[Cl-].[Ru+2]	ICP-MS, refers to: ruthenium	NOD.CB17-Prkdc scid/J mouse, blood	6 h after last dose		blood concentration	4200 ± 1300 ng/mL
COC(=O)c1ccc2c(c1)NC(=O)/C2=C(\Nc1ccc2c(c1)CCN2C(=O)CN1CCOCC1)c1ccccc1		CD-1 mouse	intravenous, 10 mg/kg	reference: liver blood flow	blood clearance	~30%
Cc1ccc(CN2C(=O)/C(=N\c3ccc(Cl)cc3Br)c3ccccc32)cc1		mouse	200 mg/kg		blood urea	decreased
CCC(=O)N1CCC(NC(=O)Nc2ccc(OC(F)(F)F)cc2)CC1		male C57BL/6J mouse, blood	subcutaneous, 0.3 mg/kg, 168 h, day 7		blood concentration	~15 nM

Repeated from above:
Structure (SMILES)	test	test system	setting	scale	measurement	value
COc1ccc2ccc3c(c2c1)C=[N+]1C2CCCCC2[N+]2=Cc4cccc(OC)c4[O][Au-]21[O]3.F[P-](F)(F)(F)(F)F (centres unmarked)	ICP-MS, refers to: gold	mouse	intraperitoneal, 5 mg/kg, 24 h		blood concentration	> 1000 ng/mL
